Assay results collected from several papers.
Protocols differ between the studies behind these lines. Numbers after ± are the reported error.
CA1: Carbonic anhydrase 1 (CA1, Homo sapiens, UniProt P00915)
Sequence of UniProt P00915 (whole entry, looked up): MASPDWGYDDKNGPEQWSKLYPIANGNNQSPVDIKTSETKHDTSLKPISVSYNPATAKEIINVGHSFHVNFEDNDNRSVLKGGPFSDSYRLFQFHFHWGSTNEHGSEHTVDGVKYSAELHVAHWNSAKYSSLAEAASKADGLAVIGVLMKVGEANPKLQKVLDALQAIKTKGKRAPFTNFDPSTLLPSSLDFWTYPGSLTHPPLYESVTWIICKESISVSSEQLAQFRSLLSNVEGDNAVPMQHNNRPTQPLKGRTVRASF
POLB: DNA polymerase beta (POLB, Homo sapiens, UniProt P06746)
Dipeptidyl peptidase 8: Dipeptidyl peptidase 8 (Homo sapiens, UniProt Q6V1X1)
Sequence of UniProt Q6V1X1 (whole entry, looked up): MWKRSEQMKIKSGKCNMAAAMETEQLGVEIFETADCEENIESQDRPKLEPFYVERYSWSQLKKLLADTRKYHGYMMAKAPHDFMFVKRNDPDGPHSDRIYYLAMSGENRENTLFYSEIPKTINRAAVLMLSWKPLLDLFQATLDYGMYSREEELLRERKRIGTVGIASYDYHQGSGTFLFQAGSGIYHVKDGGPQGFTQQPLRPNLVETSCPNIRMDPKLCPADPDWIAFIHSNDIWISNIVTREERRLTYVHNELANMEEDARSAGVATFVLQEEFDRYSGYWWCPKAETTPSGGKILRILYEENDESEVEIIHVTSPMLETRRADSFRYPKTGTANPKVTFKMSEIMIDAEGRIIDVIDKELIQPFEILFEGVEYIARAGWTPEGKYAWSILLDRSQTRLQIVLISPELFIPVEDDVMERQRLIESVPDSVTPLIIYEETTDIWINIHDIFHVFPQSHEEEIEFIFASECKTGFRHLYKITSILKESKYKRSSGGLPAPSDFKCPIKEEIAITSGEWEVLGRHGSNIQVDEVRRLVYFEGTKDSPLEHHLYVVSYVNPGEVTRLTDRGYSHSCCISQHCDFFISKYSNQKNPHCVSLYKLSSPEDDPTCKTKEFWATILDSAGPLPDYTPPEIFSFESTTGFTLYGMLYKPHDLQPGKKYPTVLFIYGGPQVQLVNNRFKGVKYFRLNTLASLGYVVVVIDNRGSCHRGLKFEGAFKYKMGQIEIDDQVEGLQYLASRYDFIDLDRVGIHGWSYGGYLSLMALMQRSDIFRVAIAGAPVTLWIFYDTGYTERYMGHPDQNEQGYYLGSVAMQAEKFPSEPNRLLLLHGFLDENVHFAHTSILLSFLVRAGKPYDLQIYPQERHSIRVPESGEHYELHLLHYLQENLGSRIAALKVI
Urease: Urease (Canavalia ensiformis, UniProt P07374)
Sequence of UniProt P07374 (whole entry, looked up): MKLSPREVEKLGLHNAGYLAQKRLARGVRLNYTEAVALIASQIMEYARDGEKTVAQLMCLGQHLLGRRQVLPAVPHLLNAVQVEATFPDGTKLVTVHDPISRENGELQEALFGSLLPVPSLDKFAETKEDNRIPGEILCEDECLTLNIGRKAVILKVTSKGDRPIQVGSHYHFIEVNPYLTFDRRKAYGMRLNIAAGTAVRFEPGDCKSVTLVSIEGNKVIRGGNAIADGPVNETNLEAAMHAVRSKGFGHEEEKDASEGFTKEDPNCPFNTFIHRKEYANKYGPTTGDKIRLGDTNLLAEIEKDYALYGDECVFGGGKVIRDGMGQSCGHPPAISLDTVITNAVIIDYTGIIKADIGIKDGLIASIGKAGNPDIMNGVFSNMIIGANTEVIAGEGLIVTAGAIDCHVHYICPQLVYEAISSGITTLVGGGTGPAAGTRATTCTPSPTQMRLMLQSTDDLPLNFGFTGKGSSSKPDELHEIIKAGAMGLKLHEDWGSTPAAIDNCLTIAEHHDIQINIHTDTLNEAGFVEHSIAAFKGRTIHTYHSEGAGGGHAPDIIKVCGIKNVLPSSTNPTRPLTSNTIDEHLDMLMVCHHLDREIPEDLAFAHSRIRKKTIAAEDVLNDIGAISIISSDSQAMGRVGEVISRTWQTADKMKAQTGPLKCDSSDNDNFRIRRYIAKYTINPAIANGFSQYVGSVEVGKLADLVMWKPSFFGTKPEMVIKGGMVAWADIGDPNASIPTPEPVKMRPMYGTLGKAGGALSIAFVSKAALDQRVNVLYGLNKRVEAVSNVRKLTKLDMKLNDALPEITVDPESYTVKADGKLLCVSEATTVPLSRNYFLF
Cnr2: Cannabinoid receptor 2 (Cnr2, Mus musculus, UniProt P47936)
Sequence of UniProt P47936 (whole entry, looked up): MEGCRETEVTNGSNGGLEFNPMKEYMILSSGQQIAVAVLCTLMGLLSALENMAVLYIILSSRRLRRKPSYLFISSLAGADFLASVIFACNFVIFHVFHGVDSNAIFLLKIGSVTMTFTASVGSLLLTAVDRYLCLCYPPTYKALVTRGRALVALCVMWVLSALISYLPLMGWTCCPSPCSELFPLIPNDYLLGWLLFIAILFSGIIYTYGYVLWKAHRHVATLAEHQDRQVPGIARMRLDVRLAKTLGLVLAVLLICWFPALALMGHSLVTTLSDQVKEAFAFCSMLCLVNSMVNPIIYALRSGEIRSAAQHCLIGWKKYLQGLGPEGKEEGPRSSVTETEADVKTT
HTR1A: 5-hydroxytryptamine receptor 1A (HTR1A, Homo sapiens, UniProt P08908)
Sequence of UniProt P08908 (whole entry, looked up): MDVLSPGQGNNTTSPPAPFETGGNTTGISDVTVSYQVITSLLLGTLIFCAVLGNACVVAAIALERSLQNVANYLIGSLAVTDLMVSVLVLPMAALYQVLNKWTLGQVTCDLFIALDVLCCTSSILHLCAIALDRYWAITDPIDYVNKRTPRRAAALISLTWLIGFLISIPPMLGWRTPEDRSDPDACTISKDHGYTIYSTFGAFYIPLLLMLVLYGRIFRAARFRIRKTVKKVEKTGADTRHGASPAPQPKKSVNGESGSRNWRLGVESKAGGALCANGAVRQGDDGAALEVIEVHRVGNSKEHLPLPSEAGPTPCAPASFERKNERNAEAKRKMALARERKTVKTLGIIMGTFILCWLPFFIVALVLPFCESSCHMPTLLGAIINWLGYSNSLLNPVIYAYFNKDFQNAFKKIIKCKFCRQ
Sequence of UniProt Q14703 (whole entry, unmodified, looked up): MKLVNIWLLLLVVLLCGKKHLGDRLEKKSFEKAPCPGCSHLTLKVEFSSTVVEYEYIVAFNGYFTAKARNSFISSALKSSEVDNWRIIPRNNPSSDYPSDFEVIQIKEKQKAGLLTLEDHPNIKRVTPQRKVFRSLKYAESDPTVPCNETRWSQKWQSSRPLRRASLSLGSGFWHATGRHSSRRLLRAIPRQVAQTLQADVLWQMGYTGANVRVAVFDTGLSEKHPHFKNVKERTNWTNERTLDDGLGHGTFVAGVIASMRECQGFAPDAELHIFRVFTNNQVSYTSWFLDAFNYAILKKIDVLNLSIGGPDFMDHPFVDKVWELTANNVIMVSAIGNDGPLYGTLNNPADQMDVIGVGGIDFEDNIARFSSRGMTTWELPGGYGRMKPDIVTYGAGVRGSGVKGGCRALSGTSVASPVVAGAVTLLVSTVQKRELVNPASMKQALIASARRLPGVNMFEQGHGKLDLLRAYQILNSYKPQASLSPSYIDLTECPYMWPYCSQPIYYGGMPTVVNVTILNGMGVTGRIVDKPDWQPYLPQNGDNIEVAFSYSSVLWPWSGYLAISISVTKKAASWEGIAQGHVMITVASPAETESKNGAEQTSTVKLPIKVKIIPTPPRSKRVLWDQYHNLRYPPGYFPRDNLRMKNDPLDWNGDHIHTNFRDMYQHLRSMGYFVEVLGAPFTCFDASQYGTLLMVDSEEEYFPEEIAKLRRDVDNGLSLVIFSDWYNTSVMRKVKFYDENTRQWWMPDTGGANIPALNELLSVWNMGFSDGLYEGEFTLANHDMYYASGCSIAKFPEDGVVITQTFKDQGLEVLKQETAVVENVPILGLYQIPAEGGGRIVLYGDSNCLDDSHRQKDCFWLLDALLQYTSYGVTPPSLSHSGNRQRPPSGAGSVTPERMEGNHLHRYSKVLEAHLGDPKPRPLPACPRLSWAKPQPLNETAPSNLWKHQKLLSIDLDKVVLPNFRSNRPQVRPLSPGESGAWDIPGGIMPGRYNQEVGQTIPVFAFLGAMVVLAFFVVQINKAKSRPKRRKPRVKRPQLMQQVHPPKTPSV
Sequence of UniProt P14416 (whole entry, looked up): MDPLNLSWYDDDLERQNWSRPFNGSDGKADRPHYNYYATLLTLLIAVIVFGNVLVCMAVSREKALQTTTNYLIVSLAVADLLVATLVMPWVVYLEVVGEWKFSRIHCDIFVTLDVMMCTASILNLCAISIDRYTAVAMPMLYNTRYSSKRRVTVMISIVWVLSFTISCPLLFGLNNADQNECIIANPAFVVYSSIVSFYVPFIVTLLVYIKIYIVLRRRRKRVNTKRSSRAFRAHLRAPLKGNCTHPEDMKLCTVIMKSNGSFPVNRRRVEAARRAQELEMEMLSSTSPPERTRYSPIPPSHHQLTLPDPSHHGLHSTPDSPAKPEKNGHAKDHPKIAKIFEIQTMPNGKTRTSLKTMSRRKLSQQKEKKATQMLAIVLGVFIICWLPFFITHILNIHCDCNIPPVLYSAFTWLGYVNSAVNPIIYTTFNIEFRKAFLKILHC
Sequence of UniProt P25021 (whole entry, looked up): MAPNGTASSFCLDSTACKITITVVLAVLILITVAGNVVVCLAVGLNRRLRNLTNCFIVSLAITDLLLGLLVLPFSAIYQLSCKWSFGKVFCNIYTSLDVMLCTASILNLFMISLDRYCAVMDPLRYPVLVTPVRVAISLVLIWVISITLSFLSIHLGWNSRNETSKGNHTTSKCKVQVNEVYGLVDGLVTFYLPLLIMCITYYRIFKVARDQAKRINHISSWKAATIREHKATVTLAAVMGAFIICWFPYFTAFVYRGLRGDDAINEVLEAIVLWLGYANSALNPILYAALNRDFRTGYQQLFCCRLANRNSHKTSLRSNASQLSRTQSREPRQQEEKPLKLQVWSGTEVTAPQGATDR
Sequence of UniProt P11086 (whole entry, looked up): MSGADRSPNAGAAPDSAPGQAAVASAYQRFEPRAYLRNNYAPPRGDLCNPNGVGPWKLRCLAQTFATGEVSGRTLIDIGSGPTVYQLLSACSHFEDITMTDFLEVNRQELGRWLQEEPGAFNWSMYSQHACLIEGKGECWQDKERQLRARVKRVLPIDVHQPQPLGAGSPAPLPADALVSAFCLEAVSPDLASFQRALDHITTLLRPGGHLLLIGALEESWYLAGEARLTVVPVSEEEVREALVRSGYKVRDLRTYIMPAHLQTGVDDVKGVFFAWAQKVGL

| Compound | target | assay | setting | Ki |
| --- | --- | --- | --- | --- |
| Cc1cc(=O)oc2cc(OCCCCCCSC#N)ccc12 | CA1 | enzyme activity, inhibitor, stopped-flow | – | > 100000 nM |
| O=C(NCCCCOP(=O)(O)OP(=O)(O)OP(=O)(O)O)OCC1c2ccccc2-c2ccccc21 | POLB | enzyme activity, inhibitor, radiometric | – | 71000 nM |
| CCC1(CC)C(=O)N(c2cccc(C(=O)N3CCN(Cc4ccc(Br)cc4)CC3)c2)C1=O | Dipeptidyl peptidase 8 | enzyme activity, inhibitor, fluorescence | – | 9.5 nM |
| CCN(CC)Cc1ccc(C(=O)N(CCc2ccccc2OC)[C@@H]2CCNC2)cc1 | Membrane-bound transcription factor site-1 protease (Homo sapiens, UniProt Q14703, I308A) | – | – | 96 nM |
| Clc1ccc(-c2cc(CN3c4ccccc4C=Cc4ccccc43)on2)cc1 | Urease | enzyme activity, inhibitor | – | 5060 nM |
| O=C(NCCOP(=O)(O)OP(=O)(O)OP(=O)(O)O)OCC1c2ccccc2-c2ccccc21 | POLB | DNA polymerase activity, inhibitor | added: 1 mM Mg2+, poly(dA)/oligo(dT) | > 400000 nM |
| N#C[Se]CCCCCCOc1ccc2c(-c3ccccc3)cc(=O)oc2c1 | CA1 | enzyme activity, inhibitor, stopped-flow | – | > 100000 nM |
| CCOC(=O)C(CC)(CCCSCCOCCOCCOCCNc1ccc([N+](=O)[O-])c2nonc12)NC(=O)c1ccc(C2CC2)c(Cc2ccc(F)cc2)n1 (stereo not drawn) | Cnr2 | ligand displacement, radioligand | cell membranes | 85 nM |
| CC1(Cc2ccccc2)C(=O)N(c2cccc(CN3CCN(Cc4ccc(Br)cc4)CC3)c2)C1=O | Dipeptidyl peptidase 8 | enzyme activity, inhibitor, fluorescence | – | 23.3 nM |
| N#Cc1ccc(-c2cc(CN3c4ccccc4C=Cc4ccccc43)on2)cc1 | Urease | enzyme activity, inhibitor | – | 7180 nM |
| CCCCn1c(SCC(N)=O)nc2c1c(=O)[nH]c(=O)n2C | Aminoglycoside phosphotransferase APH(2'')-IVa (Enterococcus casseliflavus, UniProt O68183) | enzyme activity, inhibitor, quench-flow HPLC kinetics | added: 400 µM ATP, 100 µM gentamicin | 16000 ± 14000 nM |
| Clc1cccc(-c2cc(CN3c4ccccc4C=Cc4ccccc43)on2)c1 | Urease | enzyme activity, inhibitor | – | 5360 nM |
| CCOC(=O)C(CC)(CCCSCCOCCOCCOCCN)NC(=O)c1ccc(C2CC2)c(Cc2ccc(F)cc2)n1 (stereo not drawn) | Cnr2 | ligand displacement, radioligand | cell membranes | 2.8 nM |
| CCCC1(C)C(=O)N(c2cccc(CN3CCN(Cc4ccc(Br)cc4)CC3)c2)C1=O | Dipeptidyl peptidase 8 | enzyme activity, inhibitor, fluorescence | – | 315 nM |
| CCc1c(Cl)cccc1N1CCN(C[C@@H](F)CCNC(=O)c2cc3ccccc3[nH]2)CC1 | HTR1A | ligand displacement, radioligand | cell membranes | 754 nM |
| Cc1cc(NC(=O)c2cccc(NC(=O)/C(C#N)=C/C(C)(C)C)c2)ccc1Nc1nccc(-c2cccnc2)n1 | MAPK8 (Homo sapiens, UniProt P45983) | SPR two-step binding model | wild-type protein surface | 20.6 nM |
| CCOC(=O)C(CC)(CCCSCCOCCNc1ccc([N+](=O)[O-])c2nonc12)NC(=O)c1ccc(C2CC2)c(Cc2ccc(F)cc2)n1 (stereo not drawn) | Cnr2 | ligand displacement, radioligand | cell membranes | 59 nM |

| Compound | target | assay | setting | Ki |
| --- | --- | --- | --- | --- |
| Cn1ccc2c(N3CCN(CCCCOc4ccc5c(c4)NC(=O)CC5)CC3)cccc21 | HTR1A | ligand displacement, radioligand | – | 63 nM |
| N#Cc1ccccc1-c1cc(CN2c3ccccc3C=Cc3ccccc32)on1 | Urease | enzyme activity, inhibitor | – | 13400 nM |
| CCOC(=O)[C@](CC)(CCCSCCOCCOCCNC(=O)OC(C)(C)C)NC(=O)c1ccc(C2CC2)c(Cc2ccc(F)cc2)n1 | Cnr2 | ligand displacement, radioligand | cell membranes | 64 nM |
| CCC1(CC)C(=O)N(c2cc(C(=O)OC)cc(C(=O)N3CCN(Cc4ccc(Br)cc4)CC3)c2)C1=O | Dipeptidyl peptidase 8 | enzyme activity, inhibitor, fluorescence | – | 30 nM |
| Cc1cccc(-c2cc(CN3c4ccccc4C=Cc4ccccc43)on2)c1 | Urease | enzyme activity, inhibitor | – | 6350 nM |
| CCOC(=O)[C@@](CC)(CCCSCCOCCOCCN)NC(=O)c1ccc(C2CC2)c(Cc2ccc(F)cc2)n1 | Cnr2 | ligand displacement, radioligand | cell membranes | 13 nM |
| COCCNCc1ccc(-c2cc(Cl)cc(Cl)c2)o1 | DRD2 (Homo sapiens, UniProt P14416) | ligand displacement, radioligand | – | 162 nM |
| O=C1CCc2c(ccc3ccccc23)O1 | CA1 | enzyme activity, inhibitor, stopped-flow | – | 46100 nM |
| CCC1(CC)C(=O)N(c2cccc(CCC(=O)O)c2)C1=O | Dipeptidyl peptidase 8 | enzyme activity, inhibitor, fluorescence | – | 316 nM |
| CCCCC1CCC(=O)O1 (stereo not drawn) | CA1 | enzyme activity, inhibitor, stopped-flow | – | 84000 nM |
| CCC1(CC)C(=O)N(c2cc(O)cc(C(=O)N3CCN(Cc4ccc(Br)cc4)CC3)c2)C1=O | Dipeptidyl peptidase 8 | enzyme activity, inhibitor, fluorescence | – | 7 nM |
| Fc1cccc(-c2cc(CN3c4ccccc4C=Cc4ccccc43)on2)c1 | Urease | enzyme activity, inhibitor | – | 8080 nM |
| CCOC(=O)C(CC)(CCCSCCCCCCNc1ccc([N+](=O)[O-])c2nonc12)NC(=O)c1ccc(C2CC2)c(Cc2ccc(F)cc2)n1 (stereo not drawn) | Cnr2 | ligand displacement, radioligand | cell membranes | 144 nM |
| Nc1ncnc2c1ncn2C1OC(CN(CCCC2CNCc3c2ccc(Cl)c3Cl)CCC(N)C(=O)O)C(O)C1O (mixture of isomers) | PNMT (Homo sapiens, UniProt P11086) | enzyme activity, inhibitor, radiolabel | pH 8.0, added: [3H-methyl]SAM | 12 nM |
| CSCc1cn(-c2cccc(C(=O)N3CCC(c4nc(-c5ccccc5)n[nH]4)CC3)c2)nn1 | FSP1, ancestral | NADH oxidase activity, inhibitor | pH 7.2, added: varying NADH, no coenzyme Q1 | no inhibition |
| O=C(c1cccc(N=Nc2ccc(OC3CC(N4CCCCC4)C3)cc2)c1)N1CCCC1 (stereo not drawn) | HRH2 (Homo sapiens, UniProt P25021) | ligand displacement, radioligand | – | > 10000 nM |

Excerpt of the above:
| Compound | target | assay | setting | Ki |
| --- | --- | --- | --- | --- |
| CCOC(=O)C(CC)(CCCSCCOCCNc1ccc([N+](=O)[O-])c2nonc12)NC(=O)c1ccc(C2CC2)c(Cc2ccc(F)cc2)n1 (stereo not drawn) | Cnr2 | ligand displacement, radioligand | cell membranes | 59 nM |
| Cn1ccc2c(N3CCN(CCCCOc4ccc5c(c4)NC(=O)CC5)CC3)cccc21 | HTR1A | ligand displacement, radioligand | – | 63 nM |
| N#Cc1ccccc1-c1cc(CN2c3ccccc3C=Cc3ccccc32)on1 | Urease | enzyme activity, inhibitor | – | 13400 nM |
| CCOC(=O)[C@](CC)(CCCSCCOCCOCCNC(=O)OC(C)(C)C)NC(=O)c1ccc(C2CC2)c(Cc2ccc(F)cc2)n1 | Cnr2 | ligand displacement, radioligand | cell membranes | 64 nM |
